Experimental data from different studies.
A part holds a random share of what one study measured.

Block 1
Target: Sal-like protein 4, full length isoform B (SALL4, Homo sapiens, UniProt Q9UJQ4-2, residues 1-616)
Method: universal PBM
Form: double-stranded DNA, one strand shown
Medium: in vitro
Tested at: not given
Notes: 8-mer, flanks averaged, mean of replicates
Direction: higher = stronger binding
Residues (chain): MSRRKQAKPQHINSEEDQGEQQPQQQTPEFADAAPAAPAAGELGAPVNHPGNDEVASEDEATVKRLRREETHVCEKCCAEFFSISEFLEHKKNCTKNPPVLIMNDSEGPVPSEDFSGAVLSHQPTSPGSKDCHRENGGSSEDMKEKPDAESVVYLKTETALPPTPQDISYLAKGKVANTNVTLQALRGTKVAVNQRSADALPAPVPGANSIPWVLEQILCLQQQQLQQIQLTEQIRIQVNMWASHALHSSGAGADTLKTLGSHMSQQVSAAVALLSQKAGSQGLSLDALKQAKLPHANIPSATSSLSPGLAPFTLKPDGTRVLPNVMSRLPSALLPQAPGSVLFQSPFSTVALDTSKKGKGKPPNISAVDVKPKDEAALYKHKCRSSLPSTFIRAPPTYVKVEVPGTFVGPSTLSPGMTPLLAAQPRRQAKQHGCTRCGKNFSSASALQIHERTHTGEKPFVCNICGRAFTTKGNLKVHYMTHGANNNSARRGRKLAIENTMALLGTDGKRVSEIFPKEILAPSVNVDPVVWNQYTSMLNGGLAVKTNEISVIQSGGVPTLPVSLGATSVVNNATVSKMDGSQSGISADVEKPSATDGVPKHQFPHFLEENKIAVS
| Oligonucleotide | E-score |
| --- | --- |
| CACGCCAA | -0.0906 |
| CTGTAATC | 0.111 |
| AGTGAACG | 0.0688 |
| GATTTATA | 0.295 |
| CAAGATGC | 0.152 |
| TATCTGCA | 0.174 |
| AGTATACC | 0.209 |
| ACGAGAGA | -0.00404 |
| ATGTTCCC | -0.116 |
| CGGTAAAA | 0.14 |
| GCATTACA | 0.129 |
| CAGACGTA | 0.0391 |
| AGGGCGTG | -0.265 |
| ACTGTTTA | 0.222 |
| CTGGATGA | -0.0677 |
| ACCGCGTG | -0.312 |
| ACCACTGC | -0.25 |
| AACACCAT | 0.0528 |
| ACAACATA | 0.298 |
| CGATCGCC | -0.156 |
| GCAATAAC | 0.197 |
| ATCGGGCA | -0.206 |

Block 2
Target: Histone acetyltransferase KAT6A, winged helix 1, GST fusion (KAT6A, Homo sapiens, UniProt Q92794, residues 1-85)
Method: protein binding microarray
Form: double-stranded DNA, one strand shown
Medium: in vitro
Tested at: not given
Notes: 8-mer, flanks averaged, mean of 2 arrays, mostly near background
Baseline: not given
Direction: higher = stronger binding
Target sequence (chain): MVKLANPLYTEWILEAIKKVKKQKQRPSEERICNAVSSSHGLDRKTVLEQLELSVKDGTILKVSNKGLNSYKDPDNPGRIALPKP
| Oligonucleotide | E-score |
| --- | --- |
| GGTGACTA | 0.00136 |
| CAACCTTC | -0.0866 |
| CGGGTAAC | 0.309 |
| GCCGACCA | 0.142 |
| CCGTCATC | 0.223 |
| CCGCGCGG | 0.462 |
| CGCCAAAA | 0.0955 |
| GTAAAGGA | -0.147 |
| AGACGGCG | 0.325 |
| CTAACTTA | -0.0527 |
| ACTAGATA | -0.122 |
| ACGAAGCT | -0.119 |
| TAGCACTA | -0.139 |
| AGGGCTTC | -0.159 |
| ATCGTAGC | -0.0392 |
| AAGAATAG | -0.0183 |
| GTCCTATA | 0.004 |
| GCGCGCCA | 0.422 |
| ATCACACC | -0.0889 |
| CAAGCAGG | -0.128 |
| GCTACGCC | 0.23 |
| AGCGACGG | 0.43 |
| ACTATTTG | -0.0788 |
| AATCCTGT | -0.216 |
| CCCCGGCA | 0.262 |

Block 3
Target: RNA binding protein fox-1 homolog 2, RRM domain, GST-SBP tag (RBFOX2, Homo sapiens, UniProt O43251-10, residues 100-194)
Method: RNA Bind-n-Seq
Form: RNA
Medium: in vitro
Tested at: 365 nM
Notes: natural RNA segment, single round, ends assumed
Baseline: no-protein control
Direction: higher = stronger binding
Construct (chain): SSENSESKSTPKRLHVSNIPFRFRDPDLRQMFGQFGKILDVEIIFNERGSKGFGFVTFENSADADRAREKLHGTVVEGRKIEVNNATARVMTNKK
| Oligonucleotide | RBNS enrichment (R) |
| --- | --- |
| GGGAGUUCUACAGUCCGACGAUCAUAAAACAAUUUUAAGACCAUUCAGGCCACAUAAGAUGAGAAUGCAAUUUUGUAGGAUUACAAAAAAGCCAUUAAUAUGCCAGUCAAGACUACAGUUAAAACUACUCUUGUGGAAUUCUCGGGUGCCAA | 0.27 |
| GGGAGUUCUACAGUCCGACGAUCGGGGGAGCCCGGACACCCAGAGCUCCCCGAGUUGGGGGUGCCCGUCUGGAGCGCCCCCGUCAGCCCCUGGCGGUGGGAGGUGAGAGCGAGUGGUUUAAGUGCCUGAUUACUGGAAUUCUCGGGUGCCAA | 0.57 |
| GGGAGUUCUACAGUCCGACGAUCAUGAUCAAGCAAAGCUCCCAAGCCAAAGGGUAGCAGAGGGUGGCUACGUGGUUUUUAGGUAGAUGUUCCCAGGUGCCCUCUCUUGAGCUGGGUCUGAGGUUAUCCCUGUCUGGAAUUCUCGGGUGCCAA | 0.596 |
| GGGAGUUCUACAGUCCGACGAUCUUUUUAGGAAAAUUGCAUCUGGCUAUGUAUAAAACAGACCUAAAAUAAAUUUCUUUGAUGUCUUCCCUACUUUCUCCACAUCAAUCAGAUUAAAGUGUGUAACCCCAUCUUGGAAUUCUCGGGUGCCAA | 0.758 |
| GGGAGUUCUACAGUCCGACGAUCACAGAUCUAACCAUGCAUUGCUAGCUCUGCUCCCAGCAUCCCUUCCCCUUCUCUCCUCCUCUGCCUCACUUCUUUAGUAAUCCCAACCCUAUAAAAAUGAACCUAAUGGGUGGAAUUCUCGGGUGCCAA | 4.71 |
| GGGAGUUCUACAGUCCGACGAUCAGCCGAGCCCUUGGCCCUAGCCCUUGCUGCGCAGAACAGCUUGCUGGCAGCUGGCAUCGUGUCGCUUUAUCUGCCCCCGCACAGUUUGCUUUGUACGUCUGCCAAGAAUCUGGAAUUCUCGGGUGCCAA | 0.794 |
| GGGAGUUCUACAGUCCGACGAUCGGGGAGAGGGUUUAAAUGAGGGUUAUGGGGCGAAAUAAAACCAAGUAUAAGUGAUUCUAUCUUGGUCCCACCAAGAGUUUGCCCGAUCUCCACACAUCACCUGUUGUCUCUGGAAUUCUCGGGUGCCAA | 0.305 |
| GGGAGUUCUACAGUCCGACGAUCAAGUUCUCAGUCCCAACCUCGGGGAUGUGUGCAGACAGGGCUGUGUGACCACAGCUGGGCCCUGUUCCCUCUGGACCUCGGUCUCCUCAUCUGUGAGAUGCUGUGGCCCAUGGAAUUCUCGGGUGCCAA | 0.227 |
| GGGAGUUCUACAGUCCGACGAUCUUUGUUUUAAGAUGGGGUUUCUCUGUGUAACAUUCCUAGCUGUCCUGGAACUUGCUUUAUAGUCCAGGCUGGCCUCACAUCCACAGAGACAUGCUAGGAUUAAGGGUGUGUGGAAUUCUCGGGUGCCAA | 0.318 |
| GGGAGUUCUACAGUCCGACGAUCGACUGAACAUGGAUGCCGGAGCAGAGCAUCAAUUCCUUCAUAGAUUCCAAGUCACUCCUCGAUGAAGACUCUUGUUGAGACUUACUAAACACUUUAGGCGCAGUCGGGAGUGGAAUUCUCGGGUGCCAA | 0.476 |
| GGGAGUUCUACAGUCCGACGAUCUAAUCAGGUGUGGCUAUCUGAGAAAUCAACUUUGGGGGAAAUGUAAGAUUCUGAGCUCUCUCUCUGUUUUGUUCUAGCCAUGAAUUUGCCUGAGAAACUUGUAACCUAUGUGGAAUUCUCGGGUGCCAA | 4.94 |
| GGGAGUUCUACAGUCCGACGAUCUGCAAAGUGCUUUAUGCUUUUUAAUAAUUGUUAGCUGUUUCUCACAUCAUUGUGAGUUAGAUCAGUAUUAUGACCGCUGUCUUAGGGAAGGCCUGGGAACAGGAGUGUGCUGGAAUUCUCGGGUGCCAA | 0.487 |

Block 4
Target: Ras GTPase-activating protein-binding protein 1, full length (G3BP1, Homo sapiens, UniProt Q13283)
Chain of UniProt Q13283 (whole entry, looked up): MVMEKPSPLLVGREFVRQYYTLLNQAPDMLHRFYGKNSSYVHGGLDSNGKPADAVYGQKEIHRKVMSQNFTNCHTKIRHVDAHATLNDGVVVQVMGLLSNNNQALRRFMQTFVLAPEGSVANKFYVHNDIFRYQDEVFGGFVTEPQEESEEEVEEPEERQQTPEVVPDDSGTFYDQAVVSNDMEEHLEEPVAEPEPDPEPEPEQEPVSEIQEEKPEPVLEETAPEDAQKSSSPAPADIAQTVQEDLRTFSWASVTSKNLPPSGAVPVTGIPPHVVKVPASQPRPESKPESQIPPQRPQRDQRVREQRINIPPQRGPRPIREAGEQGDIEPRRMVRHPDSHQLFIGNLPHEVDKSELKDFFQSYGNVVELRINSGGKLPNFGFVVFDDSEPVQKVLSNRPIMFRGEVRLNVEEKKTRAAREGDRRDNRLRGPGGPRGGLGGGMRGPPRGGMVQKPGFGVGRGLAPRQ
Method: RNA Bind-n-Seq
Form: RNA
Medium: in vitro
Tested at: 200 nM
Notes: whole 134-nt RNA, ends assumed
With: 150 mM LiCl
Baseline: input library
Direction: higher = stronger binding
Each molecule: 7-deaza-guanosine replaces G
| Oligonucleotide | log2 enrichment |
| --- | --- |
| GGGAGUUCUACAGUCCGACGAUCAGUCCUGUGCUACACAUCGUAUGUACCGAAUCGGGGUUUGGGGAAAGGGGAAAGGGGAAAGUAUUAUGUUACGCCGUUCGGAUCUGCACUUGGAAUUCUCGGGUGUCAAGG | 0.262 |
| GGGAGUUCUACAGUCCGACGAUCAAGUCCUGUGCUACACAUCGUAUGUACCGAAUCGGGGCCCCGGGGCCCCGGCCCCGGAAAGUAUUAUGUUACGCCGUUCGGAUCUGCACUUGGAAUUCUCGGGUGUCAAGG | -2.38 |
| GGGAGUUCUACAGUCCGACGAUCUAACAUUAGAGGAGGAUCUGAUGGAUAUGGCAGUGGACGUGGAUUUGGGGAUGGCUAUAAUGGGUAUGGAGGAGGACCUGGAGGUGGCAAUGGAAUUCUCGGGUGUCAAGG | 0.0268 |
| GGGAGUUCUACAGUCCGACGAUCCAAGUCCUGUGCUACACAUCGUAUGUACCGAAUCGGGGUUGGGGUUGGGUUGGGGAAAGUAUUAUGUUACGCCGUUCGGAUCUGCACUUCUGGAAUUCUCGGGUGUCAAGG | 0.572 |
| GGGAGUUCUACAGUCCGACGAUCCACAGACAACACGCACCCACACAGACACAGAGGGAAGGGGUUGGGAUGGGGACAGGGUGCACAGCAGGGCGGGGUAGGACCCCAGCCCCCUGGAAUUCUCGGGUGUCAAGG | 0.376 |
| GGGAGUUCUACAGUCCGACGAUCUCAAGUCCUGUGCUACACAUCGUAUGUACCGAAUCGGGGCCGGGGCCGGGCCGGGAAAGUAUUAUGUUACGCCGUUCGGAUCUGCACUUCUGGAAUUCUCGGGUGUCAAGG | 0.586 |
| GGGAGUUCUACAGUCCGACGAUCUUGGAUGAAGAUGGCAAAGUCCUGACCCCGGAGGAGCUGCUCUACCGGGUAAGGGGGCCUCCUCUGCCAGACCCUAGAGACCUCUCUGGGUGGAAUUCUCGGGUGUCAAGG | -0.939 |
| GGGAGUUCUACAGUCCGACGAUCAGUCCUGUGCUACACAUCGUAUGUACCGAAUCGGGGAGGGGUUUUUGGGGAAAGGGGAAAGUAUUAUGUUACGCCGUUCGGAUCUGCACUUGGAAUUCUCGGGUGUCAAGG | 0.55 |
| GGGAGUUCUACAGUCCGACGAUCUCCUGUGCUACACAUCGUAUGUACCGAAUCGGGGAGGGGAAAAAAAGGGGUUUUUGGGGAAAGUAUUAUGUUACGCCGUUCGGAUCUGCAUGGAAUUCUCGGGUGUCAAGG | 0.943 |
| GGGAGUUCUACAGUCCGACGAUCACCAUGCAGGUGGGCAUCUUUGGGAAGUGGGGUAAGGGGGGGAUAGGGAGGGGGGUAACACUUUGGGAACAGGUGGUCCCAGGUCGUUUCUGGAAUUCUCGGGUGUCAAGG | 0.318 |
| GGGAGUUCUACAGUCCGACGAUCGUCCUGUGCUACACAUCGUAUGUACCGAAUCGGGGAAAAAGGAAAAAGGGAAAAAGGGGAAAGUAUUAUGUUACGCCGUUCGGAUCUGCAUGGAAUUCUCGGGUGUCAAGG | -0.0114 |

Excerpt of the above (block 1):
| Oligonucleotide | E-score |
| --- | --- |
| ACGAGAGA | -0.00404 |
| ATGTTCCC | -0.116 |
| CGGTAAAA | 0.14 |
| GCATTACA | 0.129 |
| CAGACGTA | 0.0391 |
| AGGGCGTG | -0.265 |
